Results collected from several papers.
Parts stem from different laboratories: compare values within a part only.

Sample 1
Target: Sal-like protein 4, full length isoform B (SALL4, Homo sapiens, UniProt Q9UJQ4-2, residues 1-616)
Technique: universal PBM
Form: double-stranded DNA, one strand shown
Sample: in vitro
Tested at: not given
Notes: 8-mer, flanks averaged, mean of replicates
Reading: higher = stronger binding
Quantity: E-score
CCGGTCCG: -0.426
ACAGCACT: -0.00778
AGATGCGC: -0.0815

Sample 2
Target: RNA binding protein fox-1 homolog 2, RRM domain, GST-SBP tag (RBFOX2, Homo sapiens, UniProt O43251-10, residues 100-194)
Technique: RNA Bind-n-Seq
Form: RNA
Sample: in vitro
Tested at: 365 nM
Notes: natural RNA segment, single round, ends assumed
Baseline: no-protein control
Reading: higher = stronger binding
Quantity: RBNS enrichment (R)
GGGAGUUCUACAGUCCGACGAUCGCUCCACCUCCAAGCUCAGACAGGGCCCAGGCUUGGGGAACAGAGAGAGCAGGUGUACACCCAACCAAAGUGAUUGUGCCCUUGGUUGGGGGGCGCGGGCAUAUAACCUGUGGAAUUCUCGGGUGCCAA: 0.559
GGGAGUUCUACAGUCCGACGAUCGAUCUUUGGAGUGUGGGAAUGGAAGCUGCUUUGAGGCAAAGGCUCAUAAACCCUGCAAGUCUUCAUGGUCUUCUCACCAGCCUUUCCAGCAGGUUCUAGUGCCUUGACCUUGGAAUUCUCGGGUGCCAA: 0.382
GGGAGUUCUACAGUCCGACGAUCAAAUUCCACAGAUUAUCAAGUCCUUCUCCUGCAACAAAUGCCCAAGUCAUUUUUUAAAAAUUUCUAAUGAAAGAAGUUUGUGUUCUGUCCAAAAAGUCACUGAACUCAUAUGGAAUUCUCGGGUGCCAA: 0.4
GGGAGUUCUACAGUCCGACGAUCCAAUGAUGCCUGUAAAUAUGAAAAUGUGCCUGUAAGAGUAACAGGUAUCGCUGGGCAGUGGUGGCACACGCCUUUAAUCCCAGCAAUUGGGAGGCAGAGGCAGGUGGAUUUGGAAUUCUCGGGUGCCAA: 1.44

Sample 3
Target: Phosphate system positive regulatory protein PHO4, full length, GST-tagged (PHO4, Saccharomyces cerevisiae, UniProt P07270, residues 1-312)
Technique: competition protein-binding microarray
Form: double-stranded DNA, one strand shown
Sample: in vitro
Tested at: 2 µM
Notes: whole 60-bp probe, lowest competitor level
Added: Cbf1 competitor, 0.05 µM
Reading: higher = stronger binding
Quantity: fluorescence intensity
Construct (chain): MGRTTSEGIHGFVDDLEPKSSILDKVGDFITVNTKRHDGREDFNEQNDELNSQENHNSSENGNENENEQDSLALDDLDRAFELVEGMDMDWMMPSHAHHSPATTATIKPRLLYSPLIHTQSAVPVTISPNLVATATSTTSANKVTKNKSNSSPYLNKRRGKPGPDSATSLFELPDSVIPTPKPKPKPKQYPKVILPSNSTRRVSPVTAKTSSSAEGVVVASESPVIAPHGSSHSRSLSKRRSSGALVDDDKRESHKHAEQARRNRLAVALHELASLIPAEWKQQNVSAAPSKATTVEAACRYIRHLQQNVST
TCATACACAATGCGACACATGAAAATACTACTCTTTGTCTTGATTCGCTTGACGCTGCTG: 5370 a.u.
CATACCCAACCTTTTCACGTGCGATAAGATATTTGTGTCTTGATTCGCTTGACGCTGCTG: 12700 a.u.
CCGCCAAGAGAAATGCTCGTGACTCGTTGGCTCAATGTCTTGATTCGCTTGACGCTGCTG: 7410 a.u.
AAATTACTAAGTTGCACTGTGGGTGACGCCGTATGAGTCTTGATTCGCTTGACGCTGCTG: 4370 a.u.

Single results of other studies
PhoQ, residues 284 288 289 292 302 303 SLGVVW — fold induction (PhoP, residues 12 14 15 18 19 VHSCL (Escherichia coli, UniProt P23836); Sort-seq, item: YFP reporter; E. coli; PhoQ-PhoP variant library, added: 10 µM Mg2+; baseline: high Mg2+ state, higher = stronger signaling): 25.5

Repeated from above (sample 2):
GGGAGUUCUACAGUCCGACGAUCGAUCUUUGGAGUGUGGGAAUGGAAGCUGCUUUGAGGCAAAGGCUCAUAAACCCUGCAAGUCUUCAUGGUCUUCUCACCAGCCUUUCCAGCAGGUUCUAGUGCCUUGACCUUGGAAUUCUCGGGUGCCAA: 0.382
